Assay results of several laboratories.
Each line is one published result; not all experiments were run side by side. Numbers after ± are the reported error.
Oprd1: Delta-type opioid receptor (Oprd1, Rattus norvegicus, UniProt P33533)
Chain of UniProt P33533 (whole entry, looked up): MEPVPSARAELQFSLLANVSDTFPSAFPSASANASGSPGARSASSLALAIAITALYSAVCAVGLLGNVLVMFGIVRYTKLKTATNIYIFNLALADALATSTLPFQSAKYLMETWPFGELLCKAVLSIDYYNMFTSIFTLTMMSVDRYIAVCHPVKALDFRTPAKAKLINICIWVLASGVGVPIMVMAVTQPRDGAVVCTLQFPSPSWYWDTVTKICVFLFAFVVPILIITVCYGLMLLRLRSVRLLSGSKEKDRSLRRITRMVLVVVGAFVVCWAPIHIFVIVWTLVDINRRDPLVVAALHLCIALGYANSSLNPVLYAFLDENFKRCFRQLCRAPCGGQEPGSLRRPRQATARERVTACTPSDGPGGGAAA
PPM1D: Protein phosphatase 1D (PPM1D, Homo sapiens, UniProt O15297)
Chain of UniProt O15297 (whole entry, looked up): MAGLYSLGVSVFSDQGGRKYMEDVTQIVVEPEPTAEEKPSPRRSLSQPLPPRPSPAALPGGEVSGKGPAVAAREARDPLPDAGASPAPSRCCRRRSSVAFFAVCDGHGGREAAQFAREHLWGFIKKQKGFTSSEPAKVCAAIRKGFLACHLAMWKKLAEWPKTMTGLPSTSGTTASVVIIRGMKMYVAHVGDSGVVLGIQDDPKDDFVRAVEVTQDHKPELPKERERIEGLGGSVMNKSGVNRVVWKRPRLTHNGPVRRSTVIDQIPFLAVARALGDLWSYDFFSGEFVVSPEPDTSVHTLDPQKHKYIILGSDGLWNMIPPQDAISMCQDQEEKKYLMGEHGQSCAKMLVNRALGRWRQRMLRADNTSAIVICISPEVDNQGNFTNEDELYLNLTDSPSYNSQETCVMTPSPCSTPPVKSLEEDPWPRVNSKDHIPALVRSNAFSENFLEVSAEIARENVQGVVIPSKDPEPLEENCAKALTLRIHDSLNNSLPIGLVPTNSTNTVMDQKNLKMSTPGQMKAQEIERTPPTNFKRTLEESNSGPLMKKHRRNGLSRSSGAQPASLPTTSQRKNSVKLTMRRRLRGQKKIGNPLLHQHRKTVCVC
RXFP3: Relaxin-3 receptor 1 (RXFP3, Homo sapiens, UniProt Q9NSD7)
Chain of UniProt Q9NSD7 (whole entry, looked up): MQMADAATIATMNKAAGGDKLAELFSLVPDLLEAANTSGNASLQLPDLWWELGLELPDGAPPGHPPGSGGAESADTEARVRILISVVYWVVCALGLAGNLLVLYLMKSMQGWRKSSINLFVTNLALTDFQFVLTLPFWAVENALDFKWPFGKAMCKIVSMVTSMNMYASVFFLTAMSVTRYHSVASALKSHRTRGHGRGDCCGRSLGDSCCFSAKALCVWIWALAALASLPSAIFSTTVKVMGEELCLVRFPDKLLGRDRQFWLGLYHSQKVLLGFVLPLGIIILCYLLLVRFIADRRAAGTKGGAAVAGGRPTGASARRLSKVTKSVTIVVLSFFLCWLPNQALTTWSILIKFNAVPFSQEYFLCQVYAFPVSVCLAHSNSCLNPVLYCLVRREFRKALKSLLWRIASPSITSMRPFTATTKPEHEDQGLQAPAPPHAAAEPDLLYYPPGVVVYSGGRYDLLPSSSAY
Chain of UniProt P06276 (whole entry, looked up): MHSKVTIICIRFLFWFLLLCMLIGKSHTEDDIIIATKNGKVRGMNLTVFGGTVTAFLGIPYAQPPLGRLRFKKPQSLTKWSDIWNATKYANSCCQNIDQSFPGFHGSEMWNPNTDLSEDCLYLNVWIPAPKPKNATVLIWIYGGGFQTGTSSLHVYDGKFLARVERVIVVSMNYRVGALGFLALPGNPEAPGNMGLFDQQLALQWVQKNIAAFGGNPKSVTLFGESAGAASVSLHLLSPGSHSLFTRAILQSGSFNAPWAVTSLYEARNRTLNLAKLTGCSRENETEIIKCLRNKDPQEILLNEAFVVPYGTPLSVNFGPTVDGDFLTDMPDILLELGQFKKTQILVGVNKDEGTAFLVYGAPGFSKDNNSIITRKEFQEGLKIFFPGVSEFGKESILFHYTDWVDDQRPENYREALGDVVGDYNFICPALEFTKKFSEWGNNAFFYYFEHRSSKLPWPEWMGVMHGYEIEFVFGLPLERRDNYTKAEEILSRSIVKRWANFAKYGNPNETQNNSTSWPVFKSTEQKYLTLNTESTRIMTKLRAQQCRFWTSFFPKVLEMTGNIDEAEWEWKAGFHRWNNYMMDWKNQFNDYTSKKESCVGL
Chain of UniProt P50391 (whole entry, looked up): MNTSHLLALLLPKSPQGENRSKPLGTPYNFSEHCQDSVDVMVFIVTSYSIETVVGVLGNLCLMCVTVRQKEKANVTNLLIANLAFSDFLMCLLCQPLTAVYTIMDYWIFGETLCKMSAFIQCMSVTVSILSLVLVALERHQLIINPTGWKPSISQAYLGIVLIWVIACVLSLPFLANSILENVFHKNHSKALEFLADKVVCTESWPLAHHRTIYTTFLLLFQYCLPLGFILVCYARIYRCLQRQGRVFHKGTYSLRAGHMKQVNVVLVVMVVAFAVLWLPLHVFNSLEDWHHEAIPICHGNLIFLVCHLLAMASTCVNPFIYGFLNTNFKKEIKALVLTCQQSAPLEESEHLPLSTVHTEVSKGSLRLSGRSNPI
Chain of UniProt Q96CA5 (whole entry, looked up): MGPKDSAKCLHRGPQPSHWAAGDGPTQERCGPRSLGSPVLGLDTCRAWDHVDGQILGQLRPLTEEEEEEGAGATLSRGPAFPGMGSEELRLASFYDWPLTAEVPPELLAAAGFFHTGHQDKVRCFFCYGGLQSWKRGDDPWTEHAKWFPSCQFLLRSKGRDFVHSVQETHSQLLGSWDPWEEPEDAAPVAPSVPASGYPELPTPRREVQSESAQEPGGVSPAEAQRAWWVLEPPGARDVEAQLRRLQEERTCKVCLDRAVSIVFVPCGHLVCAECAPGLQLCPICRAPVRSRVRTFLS
Chain of UniProt Q38825 (whole entry, looked up): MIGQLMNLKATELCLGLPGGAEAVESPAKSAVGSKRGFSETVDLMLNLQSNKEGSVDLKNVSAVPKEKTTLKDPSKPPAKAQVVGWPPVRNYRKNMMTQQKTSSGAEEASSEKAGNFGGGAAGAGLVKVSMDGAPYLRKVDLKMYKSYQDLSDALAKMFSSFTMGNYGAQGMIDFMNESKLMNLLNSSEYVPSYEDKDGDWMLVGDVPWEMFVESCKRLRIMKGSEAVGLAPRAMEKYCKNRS
Chain of UniProt Q9Y5X5 (whole entry, looked up): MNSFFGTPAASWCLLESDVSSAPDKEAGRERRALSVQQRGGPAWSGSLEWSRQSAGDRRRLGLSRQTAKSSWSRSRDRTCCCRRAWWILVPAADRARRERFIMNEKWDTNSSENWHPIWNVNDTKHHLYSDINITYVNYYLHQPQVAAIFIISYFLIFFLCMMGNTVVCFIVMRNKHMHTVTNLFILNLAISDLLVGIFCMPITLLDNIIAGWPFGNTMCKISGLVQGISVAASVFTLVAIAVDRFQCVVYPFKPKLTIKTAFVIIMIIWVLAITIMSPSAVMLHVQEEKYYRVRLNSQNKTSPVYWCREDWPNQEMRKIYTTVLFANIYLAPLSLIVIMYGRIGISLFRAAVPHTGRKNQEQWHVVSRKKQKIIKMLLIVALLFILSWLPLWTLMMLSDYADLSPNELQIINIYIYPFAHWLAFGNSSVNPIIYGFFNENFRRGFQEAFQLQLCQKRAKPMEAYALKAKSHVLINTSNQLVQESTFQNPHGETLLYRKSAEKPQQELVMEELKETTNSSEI
Chain of UniProt P0A6Y8 (whole entry, looked up): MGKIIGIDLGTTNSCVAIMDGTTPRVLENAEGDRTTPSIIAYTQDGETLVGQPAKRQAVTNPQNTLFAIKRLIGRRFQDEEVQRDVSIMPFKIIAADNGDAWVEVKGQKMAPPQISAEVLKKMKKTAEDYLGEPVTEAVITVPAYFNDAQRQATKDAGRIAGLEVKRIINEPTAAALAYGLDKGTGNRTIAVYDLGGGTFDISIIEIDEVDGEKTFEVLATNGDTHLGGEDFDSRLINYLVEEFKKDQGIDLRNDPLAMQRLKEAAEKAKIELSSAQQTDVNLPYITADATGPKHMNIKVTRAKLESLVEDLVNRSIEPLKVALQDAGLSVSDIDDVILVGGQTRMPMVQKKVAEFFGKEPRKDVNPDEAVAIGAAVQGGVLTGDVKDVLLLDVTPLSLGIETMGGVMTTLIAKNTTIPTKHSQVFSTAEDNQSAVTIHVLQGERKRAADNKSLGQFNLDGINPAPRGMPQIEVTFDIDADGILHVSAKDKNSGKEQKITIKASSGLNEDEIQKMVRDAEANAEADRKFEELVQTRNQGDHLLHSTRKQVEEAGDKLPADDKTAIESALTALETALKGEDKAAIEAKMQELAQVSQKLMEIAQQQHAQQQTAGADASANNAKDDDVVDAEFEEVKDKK
Chain of UniProt P50406 (whole entry, looked up): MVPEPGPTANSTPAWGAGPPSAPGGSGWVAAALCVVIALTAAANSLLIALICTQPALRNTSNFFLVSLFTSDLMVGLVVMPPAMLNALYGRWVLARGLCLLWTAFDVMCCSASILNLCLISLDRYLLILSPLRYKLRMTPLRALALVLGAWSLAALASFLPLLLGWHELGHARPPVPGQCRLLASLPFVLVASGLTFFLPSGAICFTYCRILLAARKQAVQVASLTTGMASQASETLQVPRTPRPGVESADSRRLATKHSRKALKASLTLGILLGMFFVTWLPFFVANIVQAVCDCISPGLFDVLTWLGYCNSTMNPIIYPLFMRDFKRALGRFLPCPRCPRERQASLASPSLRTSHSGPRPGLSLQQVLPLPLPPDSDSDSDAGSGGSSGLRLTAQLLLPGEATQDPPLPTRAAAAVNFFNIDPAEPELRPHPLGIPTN
Chain of UniProt Q07812 (whole entry, looked up): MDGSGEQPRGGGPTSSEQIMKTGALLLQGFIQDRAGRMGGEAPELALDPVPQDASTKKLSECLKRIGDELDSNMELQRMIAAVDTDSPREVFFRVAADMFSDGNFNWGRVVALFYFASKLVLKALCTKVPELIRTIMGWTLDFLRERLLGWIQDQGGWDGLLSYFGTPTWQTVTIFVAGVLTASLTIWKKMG

`CC[C@H](C)[C@H](NC(=O)[C@H](CCCNC(=N)N)NC(=O)[C@H](CCCNC(=N)N)NC(=O)[C@@H]1CCCN1C(=O)[C@@H]1CCCN1C(=O)[C@H](CCCNC(=N)N)NC(=O)[C@@H]1CCCN1C(=O)[C@H](CCCNC(=N)N)NC(=O)[C@@H]1CCCN1C(=O)[C@H](CC(C)C)NC(=O)[C@H](Cc1ccc(O)cc1)NC(=O)[C@@H]1CCCN1C(=O)[C@@H]1CCCN1C(=O)[C@H](CCCCN)NC(=O)[C@H](CC(=O)O)NC(=O)[C@@H](N)C(C)C)C(=O)N[C@@H](Cc1ccc(O)cc1)C(=O)N[C@@H](CC(N)=O)C(=O)N[C@@H](CCCNC(=N)N)C(=O)N1CCN(c2cc3c(cc2F)c(=O)c(C(N)=O)cn3C2CC2)CC1` gave a Ki of 273 nM (dnaK (Escherichia coli, UniProt P0A6Y8); ligand displacement, FP).
`CCCc1cc(Cc2ccccc2)cc2c1NCCC2NC(=O)C(N)Cc1c(C)cc(O)cc1C` (stereo not drawn) has a Ki of 5.9 nM (Oprd1; ligand displacement, radioligand; cell membranes).
`CNC(C)C(=O)NC1COC2CCC(C(=O)NCc3ccccc3)N2C1=O` (mixture of isomers) gave a Ki of > 25000 nM (Baculoviral IAP repeat-containing protein 7 (Homo sapiens, UniProt Q96CA5); binding, fluorescence polarization competition; BIR domain; added: AVPIAQK-rhodamine probe).
`CC[C@H](C)[C@@H]1NC(=O)[C@H](CCOP(=O)(O)O)NC(=O)[C@H](Cc2ccc(Cl)cc2)NC(=O)CSC[C@@H](C(N)=O)NC(=O)[C@H](CC(=O)O)NC(=O)[C@H](CC(=O)O)NC(=O)[C@H](Cc2ccc(OP(=O)(O)O)cc2)NC1=O` has a Ki of 4700 ± 800 nM (PPM1D; phosphatase activity, inhibitor, malachite green; added: ATM pS1981 peptide).
With `CCCN1CCO[C@@H]2c3cc(O)ccc3OC[C@H]21` the Ki was 18.8 ± 4.7 nM (DRD2 (Homo sapiens, UniProt P14416)).
`C=C(c1ccccc1)[C@@H](N)P(=O)(O)O` has a Ki of 40 nM (PAL1 (Petroselinum crispum, UniProt P24481); enzyme activity, inhibitor, absorbance; pH 8.8).
`CC(=O)N[C@@H](CCCNC(=N)N)C(=O)N[C@H](Cc1ccc(O)cc1)C(=O)N[C@@H](CCCNC(=N)NC(=O)NCCCCN)C(=O)N[C@@H](CC(C)C)C(=O)N[C@@H](CCCNC(=N)N)C(=O)N[C@@H](Cc1ccc(O)cc1)C(N)=O` gave a Ki of 10.4 nM (NPY4R (Homo sapiens, UniProt P50391); ligand displacement, radioligand).
`O=C(O)COc1ccc(Cl)cc1Cl` has a Ki of > 1000 nM (IAA7/TIR1 (Arabidopsis thaliana, UniProt Q38825+Q570C0); binding; added: [3H]IAA).
`C1CN2CN1CN1CCN(C1)C2` gave a Ki of 57.2 nM (BAX (Homo sapiens, UniProt Q07812); ligand displacement, FP).
With `CC(C)C[C@H](NC(=O)[C@H](CCCNC(=N)N)NC(=O)[C@@H](NC(=O)[C@H](CC(=O)O)NC(=O)[C@H](CCC(N)=O)NC(=O)[C@@H](NC(=O)[C@@H](NC(=O)[C@H](CCCNC(=N)N)NC(=O)[C@H](CO)NC(=O)[C@@H](N)CO)[C@@H](C)O)C(C)C)[C@@H](C)O)C(=O)O` the Ki was 1700 ± 400 nM (Na(+)/H(+) exchange regulatory cofactor NHE-RF2, PDZ2 domain (Homo sapiens, UniProt Q15599)).
The Ki of `CC[C@H](C)[C@@H]1NC(=O)[C@H](COP(=O)(O)O)NC(=O)[C@H](Cc2ccccc2)NC(=O)CSC[C@@H](C(N)=O)NC(=O)[C@H](CCC(=O)O)NC(=O)[C@H](CCC(=O)O)NC(=O)[C@H](Cc2ccc(OP(=O)(O)O)cc2)NC1=O` is reported as 200 ± 20 nM (PPM1D; phosphatase activity, inhibitor, malachite green; added: ATM pS1981 peptide).
With `CC(=O)N[C@H]1c2nc(CCc3ccccc3)cn2[C@H](CO)[C@@H](O)[C@@H]1O` the Ki was 0.17 ± 0.05 nM (human lysosomal hexosaminidase A/B).
With `CSC[C@H]1CN(Cc2c[nH]c3c(N)ncnc23)C[C@@H]1O` the Ki was 6.5 ± 0.6 nM (MTA/SAH nucleosidase (Campylobacter jejuni subsp. jejuni, UniProt Z9IB28FKP7); inhibitor; pH 7.4, 25 °C, added: MTA 1 mM).
`CC[C@@H]1NC(=O)[C@H](CCCNC(=N)N)NC(=O)[C@H](NC(=O)C(C)C)CCNC(=O)c2cc(F)c(c(F)c2)N=Nc2c(F)cc(cc2F)C(=O)NCCNC(=O)[C@@H](Cc2ccccc2)NC1=O` gave a Ki of 64.7 nM (WDR5 (Homo sapiens, UniProt P61964); competitive fluorescence polarization; trans PSS at 405 nm).
`COc1ccc2c(c1)c(CCN(C)C)cn2S(=O)(=O)c1ccccc1` gave a Ki of 11 nM (HTR6 (Homo sapiens, UniProt P50406); ligand displacement, radioligand; cell membranes).
With `CC[C@H](C)[C@@H]1NC(=O)[C@H](CCCNC(=N)N)NC(=O)[C@@H]2CCCN2C(=O)[C@@H](NC(=O)CNC(=O)[C@H](CO)NC(=O)CNC(=O)[C@H](CO)NC(=O)CNC(=O)[C@@H](N)CCCCNC(=O)CC[C@H](NC(=O)CCCCCCCCCCCCCCCCC(=O)O)C(=O)O)CSSC[C@@H]2NC(=O)CNC(=O)[C@H](C)NC(=O)[C@H](CC(C)C)NC(=O)[C@@H]3CSSC[C@@H](C(=O)NCC(=O)O)NC(=O)[C@H](Cc4ccccc4)NC(=O)CNC(=O)[C@H](CC(N)=O)NC(=O)[C@@H]4CCCN4C(=O)CNC(=O)[C@H](CSSC[C@H](NC(=O)[C@H](CCCNC(=N)N)NC(=O)[C@H](CCSC)NC(=O)[C@H](CC(C)C)NC1=O)C(=O)N[C@@H](CCCCN)C(=O)N[C@@H](CCC(N)=O)C(=O)N[C@@H](CC(=O)O)C(=O)N[C@@H](CO)C(=O)N[C@@H](CC(=O)O)C(=O)N3)NC(=O)[C@H](C(C)C)NC2=O` the Ki was 0.125 nM (Trypsin (Sus scrofa, UniProt P00761); enzyme activity, inhibitor, fluorescence; with preincubation).
For `Nc1ncnc2c1ncn2[C@@H]1O[C@H](COP(=O)(O)OP(=O)(O)NP(=O)(O)O)[C@@H](O)[C@H]1O`, the Ki was 8600 nM (MAT2A (Homo sapiens, UniProt P31153); enzyme activity, inhibitor).
The Ki of `N=C(N)Nc1cccc(C(=O)NCC2(Nc3ccccc3)CCN(Cc3ccccc3)CC2)c1` is reported as 993 nM (Neuropeptide FF receptor 2 (Homo sapiens, UniProt Q9Y5X5); cell-free assay).
The Ki of `Cc1cc(O)cc(C)c1CC(N)C(=O)NC1CCNc2c1cc(Cc1ccccc1)cc2C(F)(F)F` (stereo not drawn) is reported as 2.2 nM (Oprd1; ligand displacement, radioligand; cell membranes).
`COc1cc2c(cc1OC)C(=O)C(=Cc1ccc(N3CC[N+](C)(C)CC3)cc1)C2` gave a Ki of 17 nM (ACHE (Homo sapiens, UniProt P22303); enzyme activity, inhibitor).
`CC[C@H](C)[C@@H]1NC(=O)[C@H](C(C)C)NC(=O)[C@H](C)NC(=O)[C@H](CCCNC(=N)N)NC(=O)[C@H]([C@@H](C)CC)NC(=O)[C@](C)(NC(=O)[C@H](CCC(=O)O)NC(=O)[C@H](CCCNC(=N)N)NC(=O)CNC(=O)[C@H](CO)NC(=O)[C@H](CC(C)C)NC(=O)[C@H](CCCNC(=N)N)NC(=O)[C@@H](NC(=O)CNC(=O)[C@H](Cc2ccc(O)cc2)NC(=O)[C@@H]2CCCN2C(=O)[C@H](C)NC(=O)[C@H](C)NC(=O)[C@@H](N)CCCNC(=N)N)C(C)C)CCCC=CCCCCCC[C@@](C)(C(=O)N[C@@H](CO)C(=O)NCC(=O)NCC(=O)N[C@@H](CO)C(=O)N[C@@H](CCCNC(=N)N)C(=O)N[C@@H](Cc2c[nH]c3ccccc23)C(=O)O)NC(=O)[C@H](Cc2ccccc2)NC1=O` has a Ki of 89.1 nM (RXFP3; ligand displacement).
For `COc1cc(/C=C/C(=O)CC(=O)/C=C/c2ccc(OC(=O)CCc3c[nH]c4ccccc34)c(OC)c2)ccc1OC(=O)CCc1c[nH]c2ccccc12`, the Ki was 49000 nM (Cholinesterase (BCHE, Homo sapiens, UniProt P06276); enzyme activity, inhibitor).
`CC[C@H](C)[C@H](NC(=O)[C@]1(C)CCCC=CCCC[C@](C)(NC(=O)[C@H](CCC(=O)O)NC(=O)[C@H](CCCNC(=N)N)NC(=O)CNC(=O)[C@H](CO)NC(=O)[C@H](CC(C)C)NC(=O)[C@@H](N)CCCNC(=N)N)C(=O)N[C@@H]([C@@H](C)CC)C(=O)N[C@@H](CCCNC(=N)N)C(=O)N[C@@H](C)C(=O)N1)C(=O)N[C@@H](Cc1ccccc1)C(=O)N[C@H](C(=O)N[C@@H](CO)C(=O)NCC(=O)NCC(=O)N[C@@H](CO)C(=O)N[C@@H](CCCNC(=N)N)C(=O)N[C@@H](Cc1c[nH]c2ccccc12)C(=O)O)[C@@H](C)O` gave a Ki of 479 nM (RXFP3; ligand displacement).
`CNC(=O)C1CCN(c2ccccc2NC(=O)c2ccc(-c3cc(O)ccc3C)c(C)n2)CC1` has a Ki of 0.1 nM (EPHA2 (Homo sapiens, UniProt P29317); cell-free assay, TR-FRET).
